Measurements pooled from the literature.
Protocols differ between the studies behind these lines. Numbers after ± are the reported error.

| system | conditions | tissue uptake | SMILES |
| --- | --- | --- | --- |
| ICR mouse, pancreas | intravenous, 60 min | 1.14 ± 0.7 %ID/g | CN(C)c1ccc(-c2nc3ccc(OCCCCCN4CCN5CCN(CC4)CC(=O)[O][Al]([18F])[O]C(=O)C5)cc3s2)cc1 |
| C57 mouse, female, B16/F1 melanoma, muscle | intravenous, 0.037 MBq, 4 h | 0.11 ± 0.09 %ID/g | CC(C)[C@H](NC(=O)[C@@H]1CCCN1C(=O)[C@H](CCCNC(=N)N)NC(=O)[C@H](CS)NC(=O)[C@H](Cc1c[nH]c2ccccc12)NC(=O)[C@H](CCCNC(=N)N)NC(=O)[C@@H](Cc1ccccc1)NC(=O)[C@H](Cc1c[nH]cn1)NC(=O)[C@H](CCC(=O)O)NC(=O)[C@H](CS)NC(=O)[C@H](CS)NC(=O)CNC(=O)[C@@H]1CC(=O)N[C@@H](CCCNC(=N)N)C(=O)NCC(=O)N[C@@H](CC(=O)O)C(=O)N[C@H](Cc2ccc(O)cc2)C(=O)N1)C(N)=O [technetium-99m labelled] |
| female C57 mouse, B16/F1 melanoma, bone | intravenous, 0.037 MBq, 0.5 h | 1.07 ± 0.24 %ID/g | CCCC[C@H](NC(=O)CNC(=O)CNC(=O)CN1CCN(CC(=O)O)CCN(CC(=O)O)CCN(CC(=O)O)CC1)C(=O)N[C@H]1CC(=O)NCCCC[C@@H](C(N)=O)NC(=O)[C@H](Cc2c[nH]c3ccccc23)NC(=O)[C@H](CCCNC(=N)N)NC(=O)[C@@H](Cc2ccccc2)NC(=O)[C@H](Cc2c[nH]cn2)NC1=O [copper-64 labelled] |
| female CB-17 SCID mouse, Daudi xenograft, muscle | intravenous, 6 h, CXCR4 blocking, together with: AMD3100 2 mg/kg coinjected | 0.06 ± 0.001 %ID/g | CN1C(=O)[C@@H](Cc2ccc(O)c(I)c2)NC(=O)CNC(=O)[C@H](Cc2ccc3ccccc3c2)NC(=O)[C@H](CCCNC(=N)N)NC(=O)[C@H]1CCCNC(=O)c1ccc(CNC(=O)CN2CCN(CC(=O)O)CCN(CC(=O)O)CCN(CC(=O)O)CC2)cc1 [lutetium-177 labelled] |
| C57 mouse, skin | intravenous, 0.056 MBq, 2 h | 0.27 ± 0.1 %ID/g | CCCC[C@H](NC(=O)CNC(=O)CNC(=O)CN1CCN(CC(=O)O)CCN(CC(=O)O)CCN(CC(=O)O)CC1)C(=O)N[C@H]1CC(=O)NCCCC[C@@H](C(N)=O)NC(=O)[C@H](Cc2c[nH]c3ccccc23)NC(=O)[C@H](CCCNC(=N)N)NC(=O)[C@@H](Cc2ccccc2)NC(=O)[C@H](Cc2c[nH]cn2)NC1=O [lead-203 labelled] |
| mouse, Hec50 endometrial tumour, muscle | 2 h post injection | 0.13 ± 0.06 %ID/g | O=C([O-])CN1CCN(CC(=O)[O-])CCN(CC(=O)NCCc2ccc3c(c2)C2C=CCC2C(c2cc4c(cc2Br)OCO4)N3)CCN(CC(=O)[O-])CC1.[111In+3] (centres unmarked) |
| C57 mouse, female, B16/F1 melanoma, stomach | intravenous, 0.037 MBq, 2 h | 1.52 ± 0.24 %ID/g | CC(C)[C@H](NC(=O)[C@@H]1CCCN1C(=O)[C@H](CCCNC(=N)N)NC(=O)[C@H](CS)NC(=O)[C@H](Cc1c[nH]c2ccccc12)NC(=O)[C@H](CCCNC(=N)N)NC(=O)[C@@H](Cc1ccccc1)NC(=O)[C@H](Cc1c[nH]cn1)NC(=O)[C@H](CCC(=O)O)NC(=O)[C@H](CS)NC(=O)[C@H](CS)NC(=O)[C@@H]1CC(=O)N[C@@H](CCCNC(=N)N)C(=O)NCC(=O)N[C@@H](CC(=O)O)C(=O)N[C@H](Cc2ccc(O)cc2)C(=O)N1)C(N)=O [technetium-99m labelled] |
| female C57 mouse, B16/F1 melanoma, heart | intravenous, 0.037 MBq, 2 h | 0.24 ± 0.13 %ID/g | CCCC[C@H](NC(=O)CNC(=O)CNC(=O)CN1CCN(CC(=O)O)CCN(CC(=O)O)CC1)C(=O)N[C@H]1CC(=O)NCCCC[C@@H](C(N)=O)NC(=O)[C@H](Cc2c[nH]c3ccccc23)NC(=O)[C@H](CCCNC(=N)N)NC(=O)[C@@H](Cc2ccccc2)NC(=O)[C@H](Cc2c[nH]cn2)NC1=O [copper-64 labelled] |

A few entries again:
| system | conditions | tissue uptake | SMILES |
| --- | --- | --- | --- |
| female C57 mouse, B16/F1 melanoma, heart | intravenous, 0.037 MBq, 2 h | 0.24 ± 0.13 %ID/g | CCCC[C@H](NC(=O)CNC(=O)CNC(=O)CN1CCN(CC(=O)O)CCN(CC(=O)O)CC1)C(=O)N[C@H]1CC(=O)NCCCC[C@@H](C(N)=O)NC(=O)[C@H](Cc2c[nH]c3ccccc23)NC(=O)[C@H](CCCNC(=N)N)NC(=O)[C@@H](Cc2ccccc2)NC(=O)[C@H](Cc2c[nH]cn2)NC1=O [copper-64 labelled] |
